# Assay results from different studies.
# A part holds a random share of what one study measured.
# Sequence of UniProt P49760 (whole entry, looked up): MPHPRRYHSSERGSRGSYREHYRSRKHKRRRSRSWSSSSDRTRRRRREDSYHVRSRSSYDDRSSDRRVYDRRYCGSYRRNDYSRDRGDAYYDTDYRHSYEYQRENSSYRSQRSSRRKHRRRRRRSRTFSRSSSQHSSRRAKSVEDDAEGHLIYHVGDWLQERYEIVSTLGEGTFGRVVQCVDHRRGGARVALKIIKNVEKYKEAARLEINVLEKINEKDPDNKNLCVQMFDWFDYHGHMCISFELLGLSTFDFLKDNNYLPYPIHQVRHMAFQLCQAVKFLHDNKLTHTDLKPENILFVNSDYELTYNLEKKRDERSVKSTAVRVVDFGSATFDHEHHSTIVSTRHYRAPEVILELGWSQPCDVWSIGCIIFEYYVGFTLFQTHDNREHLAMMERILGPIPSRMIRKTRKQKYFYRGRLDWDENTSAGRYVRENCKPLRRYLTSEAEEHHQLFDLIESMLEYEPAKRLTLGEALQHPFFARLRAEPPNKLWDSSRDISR
# Sequence of UniProt P42680 (whole entry, looked up): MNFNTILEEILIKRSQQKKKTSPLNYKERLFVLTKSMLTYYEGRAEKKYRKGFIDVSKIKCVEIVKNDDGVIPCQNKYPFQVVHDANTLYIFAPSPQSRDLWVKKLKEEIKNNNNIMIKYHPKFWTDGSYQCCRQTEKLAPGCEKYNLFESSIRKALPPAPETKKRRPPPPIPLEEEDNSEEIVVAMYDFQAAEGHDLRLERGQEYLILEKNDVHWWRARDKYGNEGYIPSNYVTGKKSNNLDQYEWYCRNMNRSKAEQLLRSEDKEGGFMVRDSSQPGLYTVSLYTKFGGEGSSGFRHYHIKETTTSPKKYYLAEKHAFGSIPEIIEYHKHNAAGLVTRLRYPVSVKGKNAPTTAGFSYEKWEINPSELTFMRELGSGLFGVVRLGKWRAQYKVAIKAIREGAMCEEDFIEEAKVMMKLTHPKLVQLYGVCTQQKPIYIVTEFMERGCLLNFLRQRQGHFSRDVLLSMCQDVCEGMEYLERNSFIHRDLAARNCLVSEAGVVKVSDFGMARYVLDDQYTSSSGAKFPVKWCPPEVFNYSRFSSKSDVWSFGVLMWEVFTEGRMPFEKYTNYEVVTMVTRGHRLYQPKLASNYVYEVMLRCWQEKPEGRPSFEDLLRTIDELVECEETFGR
# Sequence of UniProt O60674 (whole entry, looked up): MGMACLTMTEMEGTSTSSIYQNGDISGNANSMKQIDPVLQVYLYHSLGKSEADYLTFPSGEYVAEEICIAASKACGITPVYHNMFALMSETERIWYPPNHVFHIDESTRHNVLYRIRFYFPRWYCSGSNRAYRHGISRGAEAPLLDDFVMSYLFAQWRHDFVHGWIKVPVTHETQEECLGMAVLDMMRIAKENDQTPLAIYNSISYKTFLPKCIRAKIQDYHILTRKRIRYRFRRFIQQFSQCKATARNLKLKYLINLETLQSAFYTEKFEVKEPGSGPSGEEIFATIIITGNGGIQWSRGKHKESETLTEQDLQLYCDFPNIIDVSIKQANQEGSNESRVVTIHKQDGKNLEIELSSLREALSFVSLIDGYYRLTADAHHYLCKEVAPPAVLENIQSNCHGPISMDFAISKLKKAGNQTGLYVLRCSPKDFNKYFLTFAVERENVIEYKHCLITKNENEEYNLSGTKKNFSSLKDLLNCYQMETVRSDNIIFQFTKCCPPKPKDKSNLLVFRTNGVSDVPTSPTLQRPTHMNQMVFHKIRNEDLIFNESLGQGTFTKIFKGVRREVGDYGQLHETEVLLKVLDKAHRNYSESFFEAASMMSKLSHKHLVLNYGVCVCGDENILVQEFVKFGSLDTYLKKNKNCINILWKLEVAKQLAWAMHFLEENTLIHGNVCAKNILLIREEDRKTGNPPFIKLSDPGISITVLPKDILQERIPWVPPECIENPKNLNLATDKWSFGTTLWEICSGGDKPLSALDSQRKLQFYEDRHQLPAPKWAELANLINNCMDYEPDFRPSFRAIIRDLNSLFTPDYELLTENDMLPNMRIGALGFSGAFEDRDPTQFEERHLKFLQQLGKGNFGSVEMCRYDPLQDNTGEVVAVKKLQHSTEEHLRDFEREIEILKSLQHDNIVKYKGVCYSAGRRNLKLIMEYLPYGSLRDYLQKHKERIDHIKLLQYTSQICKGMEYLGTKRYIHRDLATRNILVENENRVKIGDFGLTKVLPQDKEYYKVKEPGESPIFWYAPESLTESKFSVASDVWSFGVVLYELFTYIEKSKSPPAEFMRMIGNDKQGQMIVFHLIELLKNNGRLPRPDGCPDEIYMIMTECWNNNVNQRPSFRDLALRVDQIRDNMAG
# Sequence of UniProt Q96SB4 (whole entry, looked up): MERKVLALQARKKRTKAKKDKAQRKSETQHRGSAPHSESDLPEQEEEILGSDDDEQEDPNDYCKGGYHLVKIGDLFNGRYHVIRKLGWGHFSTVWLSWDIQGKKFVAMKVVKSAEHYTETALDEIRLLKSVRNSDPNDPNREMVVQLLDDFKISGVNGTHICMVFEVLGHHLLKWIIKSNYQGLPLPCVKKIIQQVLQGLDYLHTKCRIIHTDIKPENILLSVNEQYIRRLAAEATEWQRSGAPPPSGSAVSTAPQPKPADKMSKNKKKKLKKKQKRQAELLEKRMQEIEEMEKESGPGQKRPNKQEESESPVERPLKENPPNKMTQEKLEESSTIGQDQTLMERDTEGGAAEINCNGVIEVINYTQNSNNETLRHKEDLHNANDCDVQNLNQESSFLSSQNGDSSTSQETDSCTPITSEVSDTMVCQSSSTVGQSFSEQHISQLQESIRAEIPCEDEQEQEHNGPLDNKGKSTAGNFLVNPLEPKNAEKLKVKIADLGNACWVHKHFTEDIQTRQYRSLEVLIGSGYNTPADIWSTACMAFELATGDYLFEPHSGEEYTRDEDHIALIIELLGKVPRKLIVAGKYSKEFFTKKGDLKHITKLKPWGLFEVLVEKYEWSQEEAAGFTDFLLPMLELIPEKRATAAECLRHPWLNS
# Sequence of UniProt Q04759 (whole entry, looked up): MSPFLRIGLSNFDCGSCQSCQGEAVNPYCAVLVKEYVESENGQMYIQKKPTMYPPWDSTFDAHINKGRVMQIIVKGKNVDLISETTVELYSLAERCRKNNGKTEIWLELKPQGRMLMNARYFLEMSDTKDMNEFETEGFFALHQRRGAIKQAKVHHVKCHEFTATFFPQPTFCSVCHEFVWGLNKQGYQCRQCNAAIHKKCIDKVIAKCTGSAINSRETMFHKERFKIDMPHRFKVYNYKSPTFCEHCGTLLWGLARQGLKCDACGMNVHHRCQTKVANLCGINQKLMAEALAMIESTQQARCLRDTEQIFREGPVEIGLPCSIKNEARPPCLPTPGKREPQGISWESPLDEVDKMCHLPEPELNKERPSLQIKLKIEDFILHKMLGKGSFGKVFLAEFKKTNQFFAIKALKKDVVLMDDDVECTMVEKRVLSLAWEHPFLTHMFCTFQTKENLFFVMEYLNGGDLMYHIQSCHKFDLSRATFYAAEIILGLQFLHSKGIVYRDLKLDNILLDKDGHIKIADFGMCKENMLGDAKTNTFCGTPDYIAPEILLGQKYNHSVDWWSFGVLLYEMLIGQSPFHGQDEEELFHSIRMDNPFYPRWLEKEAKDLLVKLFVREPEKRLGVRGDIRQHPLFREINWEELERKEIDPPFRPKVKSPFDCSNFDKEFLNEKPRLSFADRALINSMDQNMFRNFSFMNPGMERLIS
# Sequence of UniProt O75914 (whole entry, looked up): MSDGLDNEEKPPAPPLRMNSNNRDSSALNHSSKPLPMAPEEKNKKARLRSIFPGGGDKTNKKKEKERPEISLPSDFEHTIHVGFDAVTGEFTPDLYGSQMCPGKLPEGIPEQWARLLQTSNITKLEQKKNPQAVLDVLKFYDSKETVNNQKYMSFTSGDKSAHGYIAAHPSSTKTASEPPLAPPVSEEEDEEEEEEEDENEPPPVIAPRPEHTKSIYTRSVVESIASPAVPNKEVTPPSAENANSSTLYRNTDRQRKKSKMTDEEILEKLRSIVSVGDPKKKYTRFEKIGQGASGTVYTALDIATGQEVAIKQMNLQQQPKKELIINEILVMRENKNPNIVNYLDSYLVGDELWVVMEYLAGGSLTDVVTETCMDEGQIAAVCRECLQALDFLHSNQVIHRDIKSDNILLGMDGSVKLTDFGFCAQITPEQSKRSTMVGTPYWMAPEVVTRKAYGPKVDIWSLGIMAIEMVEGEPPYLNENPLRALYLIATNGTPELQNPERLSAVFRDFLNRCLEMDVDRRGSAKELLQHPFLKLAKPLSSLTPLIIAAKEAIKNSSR
# Sequence of UniProt P49759 (whole entry, looked up): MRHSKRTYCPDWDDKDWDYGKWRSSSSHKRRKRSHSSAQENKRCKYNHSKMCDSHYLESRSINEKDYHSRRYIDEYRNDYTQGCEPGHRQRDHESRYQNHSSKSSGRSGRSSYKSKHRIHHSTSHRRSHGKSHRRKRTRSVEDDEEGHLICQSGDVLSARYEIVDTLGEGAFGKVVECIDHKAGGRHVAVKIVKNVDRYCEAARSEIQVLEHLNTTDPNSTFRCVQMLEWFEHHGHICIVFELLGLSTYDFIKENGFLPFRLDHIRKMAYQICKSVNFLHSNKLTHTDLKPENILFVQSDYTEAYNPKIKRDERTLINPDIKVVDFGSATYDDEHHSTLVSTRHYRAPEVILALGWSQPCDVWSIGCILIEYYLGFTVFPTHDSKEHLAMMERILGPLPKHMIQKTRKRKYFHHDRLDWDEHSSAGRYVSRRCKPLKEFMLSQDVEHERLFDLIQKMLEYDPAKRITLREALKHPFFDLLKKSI
# Sequence of UniProt Q9HBY8 (whole entry, looked up): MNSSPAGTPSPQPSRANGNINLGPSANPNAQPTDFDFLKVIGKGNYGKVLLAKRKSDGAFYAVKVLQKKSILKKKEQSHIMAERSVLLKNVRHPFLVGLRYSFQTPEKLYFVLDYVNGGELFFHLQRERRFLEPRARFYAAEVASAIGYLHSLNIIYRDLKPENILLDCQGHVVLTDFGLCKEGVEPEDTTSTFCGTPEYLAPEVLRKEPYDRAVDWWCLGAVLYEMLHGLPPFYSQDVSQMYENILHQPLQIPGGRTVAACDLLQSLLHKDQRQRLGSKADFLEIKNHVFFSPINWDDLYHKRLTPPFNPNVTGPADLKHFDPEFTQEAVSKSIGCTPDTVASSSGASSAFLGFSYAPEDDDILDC

# Set 1
# Structure (SMILES): CC1=C(C#N)[C@@H](c2ccc3[nH]nc(C)c3c2)C(C#N)=C(c2ccc(Cl)cc2)N1
# Effect on: cell-free assay
# Method: competition with immobilised ligand
# Concentration: 1 µM
target,remaining binding [%]
"Tyrosine-protein kinase JAK2, JH1 (JAK2, Homo sapiens, UniProt O60674)",100
"Serine/threonine-protein kinase 26 (STK26, Homo sapiens, UniProt Q9P289)",100
"Serine/threonine-protein kinase Nek1 (NEK1, Homo sapiens, UniProt Q96PY6)",100
"Serine/threonine-protein kinase TBK1 (TBK1, Homo sapiens, UniProt Q9UHD2)",58.7
"Serine/threonine-protein kinase PAK 3 (PAK3, Homo sapiens, UniProt O75914)",100
"Serine/threonine-protein kinase RIO2 (RIOK2, Homo sapiens, UniProt Q9BVS4)",100
"G protein-coupled receptor kinase 4 (GRK4, Homo sapiens, UniProt P32298)",100
"Dual specificity mitogen-activated protein kinase kinase 5 (MAP2K5, Homo sapiens, UniProt Q13163)",49.9
"Ribosomal protein S6 kinase alpha-5, N-terminal kinase domain (RPS6KA5, Homo sapiens, UniProt O75582)",100
"Non-receptor tyrosine-protein kinase TYK2, JH2 (TYK2, Homo sapiens, UniProt P29597)",100
"Peripheral plasma membrane protein CASK (CASK, Homo sapiens, UniProt O14936)",66.2
"Dual specificity protein kinase CLK3 (CLK3, Homo sapiens, UniProt P49761)",100
"Serine/threonine-protein kinase tousled-like 1 (TLK1, Homo sapiens, UniProt Q9UKI8)",100

# Set 2
# SMILES: Nc1nc(Nc2ccc(S(N)(=O)=O)cc2)nn1C(=S)Nc1c(F)cccc1F
# Effect on: enzyme activity
# Action: inhibitor
# Concentration: 0.5 µM
# Relative to: control
target,remaining activity [%]
"SRSF protein kinase 1 (SRPK1, Homo sapiens, UniProt Q96SB4)",25.9
"Serine/threonine-protein kinase PAK 1 (PAK1, Homo sapiens, UniProt Q13153)",29
"Vascular endothelial growth factor receptor 1 (FLT1, Homo sapiens, UniProt P17948)",11.4
"Dual specificity protein kinase CLK1 (CLK1, Homo sapiens, UniProt P49759)",2.26
"Protein kinase C theta type (PRKCQ, Homo sapiens, UniProt Q04759)",15.1
"Tyrosine-protein kinase JAK1 (JAK1, Homo sapiens, UniProt P23458)",4.86
"Ephrin type-A receptor 2 (EPHA2, Homo sapiens, UniProt P29317)",29.9
"Tyrosine-protein kinase Tec (TEC, Homo sapiens, UniProt P42680)",106
"Cyclin-dependent kinase 2, with cyclin E (CDK2, Homo sapiens, UniProt P24941)",8.92
"Dual specificity protein kinase CLK2 (CLK2, Homo sapiens, UniProt P49760)",3.81
"Insulin-like growth factor 1 receptor (IGF1R, Homo sapiens, UniProt P08069)",0.625
"Casein kinase I isoform epsilon (CSNK1E, Homo sapiens, UniProt P49674)",91.8
"Calcium/calmodulin-dependent protein kinase kinase 1 (CAMKK1, Homo sapiens, UniProt Q8N5S9)",36
"Serine/threonine-protein kinase Sgk2 (SGK2, Homo sapiens, UniProt Q9HBY8)",42
"Mitogen-activated protein kinase kinase kinase 20 (MAP3K20, Homo sapiens, UniProt Q9NYL2)",49.1
"Tyrosine-protein kinase receptor TYRO3 (TYRO3, Homo sapiens, UniProt Q06418)",29.8
"Casein kinase I isoform delta (CSNK1D, Homo sapiens, UniProt P48730)",83.7
"Muscle, skeletal receptor tyrosine-protein kinase (MUSK, Homo sapiens, UniProt O15146)",8.02
"Serine/threonine-protein kinase PAK 6 (PAK6, Homo sapiens, UniProt Q9NQU5)",81.9
"Ribosomal protein S6 kinase alpha-3 (RPS6KA3, Homo sapiens, UniProt P51812)",-0.692
"Serine/threonine-protein kinase SIK2 (SIK2, Homo sapiens, UniProt Q9H0K1)",16.1

# Set 3
# Cell line: HaCaT
# Concentration: 100 µM
# Time: 36 h
SMILES,viability [%]
CCOC(=O)[C@H](CCc1ccccc1)N[C@H]1CCc2ccccc2N(CC(=O)O)C1=O,95.5
C[C@@H]1C[C@H]2[C@@H]3CCC4=CC(=O)C=C[C@]4(C)[C@@]3(Cl)[C@@H](O)C[C@]2(C)[C@@]1(OC(=O)c1ccco1)C(=O)CCl,13.7
O=C1c2cccc3c2[C@H](CCC3)CN1[C@@H]1CN2CCC1CC2,20.8
COC(=O)Nc1nc2ccc(Sc3ccccc3)cc2[nH]1,20.1
CC(=O)O[C@H]1Cc2ccccc2N(C(N)=O)c2ccccc21,96.1
COc1ccc2c(c1)C(=O)N(CCc1ccc(S(=O)(=O)NC(=O)NC3CCCCC3)cc1)C(=O)C2(C)C,67.1
CN1C(C(=O)Nc2ccccn2)=C(O)c2ccccc2S1(=O)=O,55.6
COc1ccc([C@@H]2CC(=O)c3c(O)cc(O)cc3O2)cc1O,77.2
CNC(=O)c1ccccc1Sc1ccc2c(/C=C/c3ccccn3)n[nH]c2c1,9.43
COc1cccc(N(C)C(=S)Oc2ccc3c(c2)CCCC3)n1,83.4
CC[C@H](C)[C@H](N)C1=N[C@H](C(=O)N[C@@H](CC(C)C)C(=O)N[C@H](CCC(=O)O)C(=O)N[C@H](C(=O)N[C@H]2CCCCNC(=O)[C@H](CC(N)=O)NC(=O)[C@@H](CC(=O)O)NC(=O)[C@H](Cc3cnc[nH]3)NC(=O)[C@@H](Cc3ccccc3)NC(=O)[C@H]([C@@H](C)CC)NC(=O)[C@@H](CCCN)NC2=O)[C@@H](C)CC)CS1,86.1
C[C@H]1C[C@@H]2[C@H]([C@@H](O)C[C@@]3(C)[C@H]2CC[C@]3(O)C(=O)CO)[C@@]2(C)C=CC(=O)C=C12,89.7
O=C(O)CCCCCCCC(=O)O,87.5
Nc1nc(N)c2nc(-c3ccccc3)c(N)nc2n1,31

# Single results of other studies
Structure (SMILES),target,test,setting,quantity,value
C=CCc1ccc(O)c(-c2ccc(O)c(CC=C)c2)c1,"Anoctamin-1 (ANO1, Homo sapiens, UniProt Q5XXA6, del476-501)","chloride current, inhibitor, whole-cell voltage clamp","wild type at 100 mV, added: 300 nM Ca2+",Hill slope,1.14

# A few entries again (set 3):
SMILES,viability [%]
COC(=O)Nc1nc2ccc(Sc3ccccc3)cc2[nH]1,20.1
CC(=O)O[C@H]1Cc2ccccc2N(C(N)=O)c2ccccc21,96.1
COc1ccc2c(c1)C(=O)N(CCc1ccc(S(=O)(=O)NC(=O)NC3CCCCC3)cc1)C(=O)C2(C)C,67.1
CN1C(C(=O)Nc2ccccn2)=C(O)c2ccccc2S1(=O)=O,55.6
COc1ccc([C@@H]2CC(=O)c3c(O)cc(O)cc3O2)cc1O,77.2
CNC(=O)c1ccccc1Sc1ccc2c(/C=C/c3ccccn3)n[nH]c2c1,9.43
COc1cccc(N(C)C(=S)Oc2ccc3c(c2)CCCC3)n1,83.4
CC[C@H](C)[C@H](N)C1=N[C@H](C(=O)N[C@@H](CC(C)C)C(=O)N[C@H](CCC(=O)O)C(=O)N[C@H](C(=O)N[C@H]2CCCCNC(=O)[C@H](CC(N)=O)NC(=O)[C@@H](CC(=O)O)NC(=O)[C@H](Cc3cnc[nH]3)NC(=O)[C@@H](Cc3ccccc3)NC(=O)[C@H]([C@@H](C)CC)NC(=O)[C@@H](CCCN)NC2=O)[C@@H](C)CC)CS1,86.1
